Published values from different studies.
Compare with care: the assays were run in different laboratories. “And” joins repeats or separate records; there may be more than shown. ± gives the spread as reported. Converted amounts (≈) assume the structure as drawn.

`CO[C@H]1[C@H](O[C@H]([C@H]2O[C@@H](n3ccc(=O)[nH]c3=O)[C@H](O)[C@@H]2O)[C@H](NCCCNC(=O)[C@@H](NC(=O)[C@@H](NC(=O)N[C@H](C(=O)O)C(C)C)[C@@H]2CCN=C(N)N2)[C@@H](OC(=O)CCCCCCCCCCCCN(O)C(=N)N)C(C)C)C(=O)O)O[C@H](CN)[C@H]1O` gave an MIC90 of 6.4 ± 0.098 µg/mL (≈ 5.27 µM) (Bacillus subtilis; microplate alamar blue; ATCC 6051).
`Cl.N/C(CC(O)c1cc2c(F)cc(F)cc2c2cc(C(F)(F)F)ccc12)=N\c1ccc(F)cc1` (stereo not shown) has a parasitemia reduction of 99.9% (Plasmodium berghei; Peters suppressive test; ANKA, infected mice; oral, 4 x 3 mg/kg, day 4; baseline: untreated control).
`CNC(C)C1CCC(N)C(OC2C(N)CC(N)C(OC3OCC(C)(O)C(NC)C3O)C2O)O1` (stereo not shown) has an MLC of 2 µg/mL (≈ 4.19 µM) (Bacillus subtilis; broth microdilution).
Under “mean survival time”, `Cl.N=C(CC(O)c1cc2c(F)cc(F)cc2c2cc(C(F)(F)F)ccc12)Nc1ccc(F)c(F)c1` (stereo not shown) is recorded as 13 days (Plasmodium berghei; Peters test; ANKA, mice; oral, 4 x 3 mg/kg).
Under “LS mean difference vs placebo”, `CS(=O)(=O)CCCn1c(Cn2c(=O)n(CC(F)(F)F)c3ccncc32)cc2cc(Cl)ccc21` is recorded as 0.01 log10 copies/mL (respiratory syncytial virus; RT-qPCR; hospitalized infants 1-24 months, nasal swab; oral, 6, 4.5 or 3 mg/kg daily, day 28, mid dose by age cohort; baseline: placebo).
The fluorescein ingestion of `N#Cc1nn(-c2c(Cl)cc(C(F)(F)F)cc2Cl)c(N)c1[S+]([O-])C(F)(F)F` (stereo not shown) is reported as -21.3% (Drosophila melanogaster; fluorescence; liquid food, 40 µg/mL, first instar larvae; baseline: solvent).
`O=C(c1cc(-n2sc3ncccc3c2=O)ccc1Cl)N1CCOCC1` has an IC50 of 320 nM (HIV-1; viral replication).
`CC[C@H](C)[C@H](NC(=O)[C@H](C)NC(=O)[C@H](CCCCN)NC(=O)[C@H](CC(C)C)NC(=O)[C@H](C)NC(=O)[C@@H](NC(=O)[C@H](Cc1c[nH]cn1)NC(=O)[C@H](CC(C)C)NC(=O)[C@@H](NC(=O)[C@@H](NC(=O)[C@H](CCCCN)NC(=O)[C@H](C)NC(=O)[C@H](C)NC(=O)[C@H](CO)NC(=O)[C@H](CCCCN)NC(=O)[C@H](Cc1ccccc1)NC(=O)[C@@H](NC(=O)[C@H](CCCCN)NC(=O)[C@H](CC(C)C)NC(=O)[C@H](Cc1ccccc1)NC(=O)[C@H](CO)NC(=O)[C@H](CCCCN)NC(=O)[C@H](Cc1c[nH]c2ccccc12)NC(=O)[C@H](CCCCN)NC(C)=O)[C@@H](C)O)[C@@H](C)O)C(C)C)[C@@H](C)O)C(=O)N[C@@H](CO)C(=O)N[C@@H](CO)C(N)=O` gave an MIC50 of 2 µg/mL (≈ 0.682 µM) (Acinetobacter baumannii; ATCC 19606).
Under “mean survival time”, `C[C@H]1[C@H](OC(=O)CCC(=O)O)O[C@@H]2O[C@@]3(C)CC[C@H]4[C@H](C)CC[C@@H]1[C@@]24OO3` is recorded as 27 days (Plasmodium berghei; ANKA GFP-transfected, Mus musculus; oral, 4 x 100 mg/kg).
`C[C@H]1COCCN1c1nc(NCc2cccnc2C(F)(F)F)c2cccnc2n1`: “median adult worm burden” 3 worms per mouse (Brugia malayi; SCID mouse; x14d dosing, 6 weeks post-treatment).
With `COC(=O)N[C@H](C(=O)N1CCC[C@H]1c1ncc(-c2ccc(-c3ccc(-c4cnc([C@@H]5CCCN5C(=O)[C@@H](NC(=O)OC)C(C)C)[nH]4)cc3)cc2)[nH]1)C(C)C` the combination index was 0.65 and 0.67 (hepatitis C virus; HCV replicon; 90% effect level, with: IFN-α, ratio 2.5:1).
`O=C(NNc1cccc(Cl)c1)c1nnc(C23CC4CC(CC(C4)C2)C3)o1` has an inhibition of 100% (Botryosphaeria dothidea; fungal growth, inhibitor; 50 µg/mL).
`COc1cc2oc([N+](=O)[O-])cc2c2ccccc12` gave an MIC90 of 0.125 µg/mL (≈ 0.514 µM) (Mycobacterium marinum; REMA; ATCC BAA-535).
